Measured values from different studies.
Compare with care: the assays were run in different laboratories. Several values in a cell are separate wells, animals, samples, runs or records. Numbers after ± are the reported error.
Cell line: MCF7

Molecule	assay	conditions	scale	measurement	result
O=C(CN1CCN(c2ccccn2)CC1)Nc1nc2ccccc2s1	cell growth or viability, MTT	100 µM, 72 h		inhibition	53.1%
CC(=NNC(=S)NN=C(C(=NO)c1ccccc1)c1ccccc1)c1ccccc1C	Western blot, measured: HO-1	IC50 concentration, 24 h	reference: untreated	relative protein level	1.56 ± 0.06
CCN1C(=O)C(C(C)=O)S/C1=N/N=C(\C)c1ccccn1 (stereo not drawn)	cell growth or viability, SRB	100 µg/mL, 48 h		inhibition	63.2%
[Au(mba)(PPh3)]	PrestoBlue viability	72 h		EC50	2400 nM and 2360 nM
C[C@]12CC[C@@H]3c4ccc(O)cc4C[C@@H](CCCCCCCCC[S+]([O-])CCCC(F)(F)C(F)(F)F)[C@H]3[C@@H]1CC[C@@H]2O (stereo partly drawn)		concentration not given, colony formation and migration		cell proliferation	inhibited
NS(=O)(=O)c1ccc(NCC(=O)Nc2nc3ccccc3s2)cc1	cell growth or viability, MTT	100 µM, 72 h		inhibition	-8.74%
CCn1c(C)c(/N=N/c2ccc(C)cc2)s/c1=N/N=C(\C)c1ccccn1	cell growth or viability, SRB	100 µg/mL, 48 h		inhibition	52.9%
N=C(N)NS(=O)(=O)c1ccc(NCC(=O)Nc2nc3ccccc3s2)cc1	cell growth or viability, MTT	100 µM, 72 h		inhibition	10.2%
CCn1c(C)cs/c1=N/N=C(\C)c1ccccn1	cell growth or viability, SRB	100 µg/mL, 48 h		inhibition	70.6%
CCCCCCCCCCCCCCCC(=O)N[C@@H](CCCNC(=N)N)C(=O)N[C@@H](CC(N)=O)C(=O)N[C@@H](CC(N)=O)C(=O)N[C@@H](CO)C(=O)N[C@@H](CCCNC(=N)N)C(=O)N[C@@H](CC(C)C)C(=O)NCC(=O)N[C@@H](CC(N)=O)C(=O)NCC(=O)N[C@H](C(=O)N[C@@H](CC(C)C)C(=O)N[C@@H](Cc1ccc(O)cc1)C(=O)N[C@@H](C)C(=O)N[C@@H](CO)C(=O)N[C@H](C(=O)N[C@@H](CC(N)=O)C(N)=O)C(C)C)C(C)C		48 h, 1% FBS		TGI	0.4 ± 0.02 µM
CC/C(=C(\c1ccc(O)cc1)c1ccc(OCCNC)cc1)c1ccccc1	antagonist, measured: PGR	1 µM, 24 h, with: estradiol 10 nM	reference: estradiol alone	mRNA level	10%
O=C(CC1Sc2ccccc2NC1=O)c1ccc(Cl)cc1 (stereo not drawn)	propidium iodide flow cytometry	1.29 µM, 24 h		S phase cells	22.7%
C#C[C@@]1(O)[C@@H](CO)O[C@@H](n2cc(Br)c3c(N)ncnc32)[C@@H]1O	cell growth or viability, SRB	48 h		GI50	0.023 µM
COc1cc(-c2noc(-c3cccs3)c2C(F)(F)F)cc(OC)c1OC	PI flow cytometry	IC50, 48 h		cells in G2/M-phase	34.8%
O=C(CN1CCN(c2cccc(O)c2)CC1)Nc1nc2ccccc2s1	cell growth or viability, MTT	100 µM, 72 h		inhibition	4.5%
CC(C)(C)c1ccc(CN2CCN(C(c3ccccc3)c3ccc(Cl)cc3)CC2)cc1 (stereo not drawn)		72 h		EC50	19000 nM
O=C(CNc1ccc(F)cc1)Nc1nc2ccccc2s1	cell growth or viability, MTT	100 µM, 72 h		inhibition	18.3%
COc1c(C)c(C)c2c(c1C)CCC(C)(C(=O)NN=C1C(=O)Nc3ccccc31)O2 (stereo not drawn)	cell growth or viability, SRB	48 h		GI50	45.1 µM
CCCCCCCCCCCCCCCC(=O)N[C@@H](CC(N)=O)C(=O)N[C@@H](CC(N)=O)C(=O)N[C@@H](CO)C(=O)N[C@@H](CCCNC(=N)N)C(=O)N[C@@H](CC(C)C)C(=O)NCC(=O)N[C@@H](CC(N)=O)C(=O)NCC(=O)N[C@H](C(=O)N[C@@H](CC(C)C)C(=O)N[C@@H](Cc1ccc(O)cc1)C(N)=O)C(C)C		48 h, 1% FBS		TGI	1.5 ± 0.05 µM
CCn1c(C)c(C(C)=O)s/c1=N/N=C(\C)c1ccccn1	cell growth, SRB	100 µg/mL, 48 h		inhibition	> 70%
COc1c(C)c(C)c2c(c1C)CCC(C)(C(=O)NN=C1C(=O)Nc3ccc(Br)cc31)O2 (stereo not drawn)	cell growth or viability, SRB	48 h		GI50	34.7 µM
O=C(CN1CCN(CC(=O)Nc2nc3ccccc3s2)CC1)Nc1nc2ccccc2s1	cell growth or viability, MTT	100 µM, 72 h		inhibition	5.23%
COc1ccc(/C=C2/S/C(=N/N=C(\C)c3ccccn3)NC2=O)cc1OC	cell growth or viability, SRB	100 µg/mL, 48 h		inhibition	65.4%

Molecule	assay	conditions	scale	measurement	result
CCCCCCCCCCCCCCCC(=O)N[C@@H](CCCCN)C(=O)N[C@@H](CCCNC(=N)N)C(=O)N[C@@H](CC(N)=O)C(=O)N[C@@H](CC(N)=O)C(=O)N[C@@H](CO)C(=O)N[C@@H](CCCNC(=N)N)C(=O)N[C@@H](CC(C)C)C(=O)NCC(=O)N[C@@H](CC(N)=O)C(=O)NCC(=O)N[C@H](C(=O)N[C@@H](CC(C)C)C(=O)N[C@@H](Cc1ccc(O)cc1)C(N)=O)C(C)C		48 h, 1% FBS		TGI	2.5 ± 0.5 µM
insulin human	DNA synthesis, agonist, 3H-thymidine incorporation	HSA 0%		EC50	2.8 nM
CCCCCCCCCCCCCCCC(=O)N[C@@H](Cc1c[nH]cn1)C(=O)N[C@@H](CCCNC(=N)N)C(=O)N[C@@H](CCCCN)C(=O)N[C@@H](CCCNC(=N)N)C(=O)N[C@@H](CC(N)=O)C(=O)N[C@@H](CC(N)=O)C(=O)N[C@@H](CO)C(=O)N[C@@H](CCCNC(=N)N)C(=O)N[C@@H](CC(C)C)C(=O)NCC(=O)N[C@@H](CC(N)=O)C(=O)NCC(=O)N[C@H](C(=O)N[C@@H](CC(C)C)C(=O)N[C@@H](Cc1ccc(O)cc1)C(=O)N[C@@H](C)C(=O)N[C@@H](CO)C(=O)N[C@H](C(N)=O)C(C)C)C(C)C		48 h, 1% FBS		TGI	1.45 ± 0.3 µM
COC(=O)c1ccc(NC(=O)CNNc2nc3ccccc3c(=O)n2-c2ccccc2)cc1	annexin V/PI staining	2.5 µM, 24 h, Early apoptosis		apoptotic cells	3.47%
CCCCCCCCCCCCCCCC(=O)N[C@@H](CO)C(=O)N[C@@H](CCCNC(=N)N)C(=O)N[C@@H](CC(C)C)C(=O)NCC(=O)N[C@@H](CC(N)=O)C(=O)NCC(=O)N[C@H](C(=O)N[C@@H](CC(C)C)C(=O)N[C@@H](Cc1ccc(O)cc1)C(N)=O)C(C)C		48 h, 1% FBS		TGI	2 ± 0.1 µM
CCN1C(=O)/C(=C\c2ccc(OC)c(OC)c2)S/C1=N/N=C(\C)c1ccccn1	cell growth or viability, SRB	100 µg/mL, 48 h		inhibition	61%
O=C(CN1CCOCC1)Nc1nc2ccccc2s1	cell growth or viability, MTT	100 µM, 72 h		inhibition	2.74%
CC(=O)c1c(C)c2cnc(Nc3ccc(N4CCNCC4)cn3)nc2n(C2CCCC2)c1=O	measured: phospho-pRb	up to 3.16 µM		time to cell cycle re-entry	≤ 48 h
Cc1c(C)c2c(c(C)c1O)CCC(C)(C(=O)NN=C1C(=O)Nc3cc(Cl)ccc31)O2 (stereo not drawn)	cell growth or viability, SRB	48 h		GI50	46.9 µM
NS(=O)(=O)c1ccc(NC(=O)CNNc2nc3ccccc3c(=O)n2-c2ccccc2)cc1	annexin V/PI staining	2.5 µM, 24 h		necrotic cells	3.05%
CCN1C(=O)/C(=C\c2ccc(OC)cc2)S/C1=N/N=C(\C)c1ccccn1	cell growth or viability, SRB	100 µg/mL, 48 h		inhibition	65.4%
Cc1c(C)c2c(c(C)c1OCc1ccccc1)CCC(C)(C(=O)NN=C1C(=O)Nc3ccc(F)cc31)O2 (stereo not drawn)	cell growth or viability, SRB	48 h		GI50	64.1 µM
CCOC(=O)c1ccc(N2C(=O)C(c3ccccc3)N(c3ccccc3)C2=O)cc1 (stereo not drawn)	Annexin V/PI flow cytometry	IC50 concentration, 72 h		apoptotic cells	49.4%
Cc1c(C)c2c(c(C)c1OCc1ccccc1)CCC(C)(C(=O)NN=C1C(=O)Nc3ccc(Br)cc31)O2 (stereo not drawn)	cell growth or viability, SRB	48 h		GI50	76.6 µM
CCCCCCCCCCCCCCCC(=O)N[C@H](C(=O)N[C@@H](Cc1c[nH]cn1)C(=O)N[C@@H](CCCNC(=N)N)C(=O)N[C@@H](CCCCN)C(=O)N[C@@H](CCCNC(=N)N)C(=O)N[C@@H](CC(N)=O)C(=O)N[C@@H](CC(N)=O)C(=O)N[C@@H](CO)C(=O)N[C@@H](CCCNC(=N)N)C(=O)N[C@@H](CC(C)C)C(=O)NCC(=O)N[C@@H](CC(N)=O)C(=O)NCC(=O)N[C@H](C(=O)N[C@@H](CC(C)C)C(=O)N[C@@H](Cc1ccc(O)cc1)C(=O)N[C@@H](C)C(=O)N[C@@H](CO)C(=O)N[C@H](C(N)=O)C(C)C)C(C)C)C(C)C		48 h, 1% FBS		TGI	1.05 ± 0.1 µM
COc1cccc2c1C(=O)c1c(O)c3c(c(O)c1C2=O)C[C@@](O)(C(=O)CO)C[C@@H]3O[C@H]1C[C@H](N)[C@H](O)[C@H](C)O1	cell growth or viability, SRB	48 h		GI50	< 0.1 µM
CCCCCCCCCCCCCCCC(=O)N[C@@H](CC(N)=O)C(=O)N[C@@H](CO)C(=O)N[C@@H](CCCNC(=N)N)C(=O)N[C@@H](CC(C)C)C(=O)NCC(=O)N[C@@H](CC(N)=O)C(=O)NCC(=O)N[C@H](C(=O)N[C@@H](CC(C)C)C(=O)N[C@@H](Cc1ccc(O)cc1)C(N)=O)C(C)C		48 h, 1% FBS		TGI	1.5 ± 0.1 µM
Cc1c(C)c2c(c(C)c1O)CCC(C)(C(=O)NN=C1C(=O)Nc3ccccc31)O2 (stereo not drawn)	cell growth or viability, SRB	48 h		GI50	37.1 µM
C[C@@H]1O[C@@H](O[C@@H]2[C@@H](O)[C@H](OCCc3ccc(O)c(O)c3)O[C@H](CO)[C@H]2OC(=O)/C=C/c2ccc(O)c(O)c2)[C@H](O)[C@H](O)[C@H]1O	caspase-3/7 flow cytometry, measured: early plus late apoptosis	IC50, 24 h		apoptotic cells	26.9%
CCN1C(=O)/C(=C\c2ccc(F)cc2)S/C1=N/N=C(\C)c1ccccn1	cell growth, SRB	100 µg/mL, 48 h		inhibition	> 70%
insulin icodec	glycogen synthesis, agonist, [14C]glucose incorporation	0% HSA		EC50	4860 nM
Cc1c(C)c2c(c(C)c1OCc1ccccc1)CCC(C)(C(=O)NN=C1C(=O)N(C)c3ccccc31)O2 (stereo not drawn)	cell growth or viability, SRB	48 h		GI50	> 100 µM

A few entries again:
Molecule	assay	conditions	scale	measurement	result
CC/C(=C(\c1ccc(O)cc1)c1ccc(OCCNC)cc1)c1ccccc1	antagonist, measured: PGR	1 µM, 24 h, with: estradiol 10 nM	reference: estradiol alone	mRNA level	10%
O=C(CC1Sc2ccccc2NC1=O)c1ccc(Cl)cc1 (stereo not drawn)	propidium iodide flow cytometry	1.29 µM, 24 h		S phase cells	22.7%
C#C[C@@]1(O)[C@@H](CO)O[C@@H](n2cc(Br)c3c(N)ncnc32)[C@@H]1O	cell growth or viability, SRB	48 h		GI50	0.023 µM
COc1cc(-c2noc(-c3cccs3)c2C(F)(F)F)cc(OC)c1OC	PI flow cytometry	IC50, 48 h		cells in G2/M-phase	34.8%
O=C(CN1CCN(c2cccc(O)c2)CC1)Nc1nc2ccccc2s1	cell growth or viability, MTT	100 µM, 72 h		inhibition	4.5%
